Experimental data pooled from the literature.
Every numbered part comes from another study and shows a few of its results, in no order. Substitutions count along the parent as printed.

Study 1
Target: CCNA2, cyclin fold, Cln2 fusion (human)
Method: yeast growth competition, sequencing
Matrix: yeast
Notes: strong parent motif
Relative to: not given
Direction: higher = stronger binding
Starting sequence: CENPC docking peptide (human); VKTKKRLNFDDKV; partner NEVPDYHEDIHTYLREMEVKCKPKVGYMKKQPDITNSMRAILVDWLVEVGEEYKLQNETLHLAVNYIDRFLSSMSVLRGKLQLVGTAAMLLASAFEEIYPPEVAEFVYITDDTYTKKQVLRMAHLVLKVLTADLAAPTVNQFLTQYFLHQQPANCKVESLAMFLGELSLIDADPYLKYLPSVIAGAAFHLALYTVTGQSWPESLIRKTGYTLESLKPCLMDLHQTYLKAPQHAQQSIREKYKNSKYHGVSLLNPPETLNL
| Variant | normalised enrichment score |
| --- | --- |
| VKTAKRLNFDDKV [K4A] | 4.15 |
| VKTKKRLNFADKV [D10A] | 2.84 |
| VKTKKRLNFDDKA [V13A] | 5.73 |
| VKTKRRLNFDDKV [K5R] | 6.84 |
| VKTKKALNFDDKV [R6A] | 2.83 |
| VKTKKRLNADDKV [F9A] | 1.47 |
| VKTKKRLNFDDAV [K12A] | 5.81 |

Study 2
Target: Histone acetyltransferase KAT6A, both winged helices, GST fusion (KAT6A, Homo sapiens, UniProt Q92794, residues 1-181)
Method: protein binding microarray
Molecule type: double-stranded DNA, one strand shown
Matrix: in vitro
Tested at: not given
Notes: 8-mer, flanks averaged, mean of 2 arrays, mostly near background
Relative to: not given
Direction: higher = stronger binding
Residues (chain): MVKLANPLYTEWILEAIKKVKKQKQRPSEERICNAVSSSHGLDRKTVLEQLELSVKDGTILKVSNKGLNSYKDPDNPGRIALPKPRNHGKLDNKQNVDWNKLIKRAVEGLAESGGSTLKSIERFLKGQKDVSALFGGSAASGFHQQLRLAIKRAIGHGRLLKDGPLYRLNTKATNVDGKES
| Strand | E-score |
| --- | --- |
| GCGCCACA | 0.164 |
| CATATATA | -0.0566 |
| TCAGGTCA | -0.0811 |
| CCTGAAGG | -0.135 |
| CCCCTTTC | -0.0923 |
| ACAGATAC | -0.015 |
| GCGCGCGC | 0.443 |
| GTATAGAC | -0.0899 |
| CGTACACG | 0.166 |
| CGCTGCGA | 0.159 |
| CACTAAAA | 0.0814 |
| CAATTTAA | -0.0775 |
| ATTTCTTA | -0.156 |
| AGGCTCGC | 0.0695 |
| CACGCCTC | -0.0179 |
| AAAGCTCC | -0.0333 |
| TAAAATGA | -0.106 |
| CGGAGGAC | 0.139 |
| GAGTGAAA | -0.259 |
| GGTTTTGA | -0.0321 |
| CACTACGG | 0.156 |
| CGGGGGAG | -0.0233 |
| GCACGACC | -0.0858 |
| AAACTACA | -0.0817 |
| GCAACAAC | -0.0462 |

Study 3
Target: ABI1, truncated, D143A, DHFR fusion (Arabidopsis thaliana)
Method: DHFR PCA, deep sequencing
Matrix: yeast
Notes: methotrexate growth selection, single substitutions
Together with: (+)-ABA 0.032 µM
Relative to: wild-type fitted maximum
Direction: higher = stronger binding
Starting sequence: PYL1, truncated, DHFR fusion (Arabidopsis thaliana); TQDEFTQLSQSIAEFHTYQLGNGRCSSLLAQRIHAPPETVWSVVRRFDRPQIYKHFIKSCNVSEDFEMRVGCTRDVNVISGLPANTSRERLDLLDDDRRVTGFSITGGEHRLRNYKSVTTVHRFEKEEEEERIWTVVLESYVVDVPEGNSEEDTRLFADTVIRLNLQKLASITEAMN; partner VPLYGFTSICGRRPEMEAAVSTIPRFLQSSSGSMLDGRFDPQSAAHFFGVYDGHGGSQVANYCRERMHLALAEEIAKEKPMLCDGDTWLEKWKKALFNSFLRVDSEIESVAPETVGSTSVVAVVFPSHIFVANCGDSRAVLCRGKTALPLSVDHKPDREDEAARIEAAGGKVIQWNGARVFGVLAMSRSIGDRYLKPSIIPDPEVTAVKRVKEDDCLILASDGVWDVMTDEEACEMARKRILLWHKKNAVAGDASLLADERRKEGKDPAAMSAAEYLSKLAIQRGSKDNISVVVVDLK
| Variant | relative binding score |
| --- | --- |
| D3M | 19.4% |
| N165M | 2.48% |
| I105R | 1.46% |
| T106E | 13.2% |
| P83D | 2.47% |
| G102P | 2.33% |
| Y115R | -0.279% |
| S80I | 22% |
| E131T | 51.1% |
| F15H | 13.5% |
| R32K | 27.9% |

Study 4
Target: Ras GTPase-activating protein-binding protein 1, full length (G3BP1, Homo sapiens, UniProt Q13283)
Chain of UniProt Q13283 (whole entry, looked up): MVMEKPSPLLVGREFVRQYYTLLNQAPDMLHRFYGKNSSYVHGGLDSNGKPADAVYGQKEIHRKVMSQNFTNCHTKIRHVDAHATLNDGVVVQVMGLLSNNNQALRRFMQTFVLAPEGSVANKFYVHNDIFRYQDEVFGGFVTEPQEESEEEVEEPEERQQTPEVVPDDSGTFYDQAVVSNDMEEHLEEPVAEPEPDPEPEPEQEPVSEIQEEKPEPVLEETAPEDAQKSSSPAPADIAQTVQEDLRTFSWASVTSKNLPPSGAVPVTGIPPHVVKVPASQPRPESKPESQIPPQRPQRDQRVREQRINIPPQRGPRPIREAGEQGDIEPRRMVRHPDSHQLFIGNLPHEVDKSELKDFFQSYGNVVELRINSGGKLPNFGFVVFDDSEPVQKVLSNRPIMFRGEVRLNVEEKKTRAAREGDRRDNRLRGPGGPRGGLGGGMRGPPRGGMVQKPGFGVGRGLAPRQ
Method: RNA Bind-n-Seq
Molecule type: RNA
Matrix: in vitro
Tested at: 200 nM
Notes: whole 134-nt RNA, ends assumed
Together with: 150 mM LiCl
Relative to: input library
Direction: higher = stronger binding
Library: 7-deaza-guanosine replaces G
| Strand | log2 enrichment |
| --- | --- |
| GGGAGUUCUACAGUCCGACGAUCUCCUGUGCUACACAUCGUAUGUACCGAAUCGGGGAAAAAAAGGGGUUUUUGGGGAGGGGAAAGUAUUAUGUUACGCCGUUCGGAUCUGCAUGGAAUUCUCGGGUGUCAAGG | 0.45 |
| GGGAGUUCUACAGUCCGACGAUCUGUUGGAGGGACGAUGGUCCGCUCCGGGCAGGACCCUUACGCCCGCAACAAGUUCAACCAGGUGGAGAGUGAUAAGCUUCGAAUGGACAGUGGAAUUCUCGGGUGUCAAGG | -2.74 |
| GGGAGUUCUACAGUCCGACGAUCCAAGUCCUGUGCUACACAUCGUAUGUACCGAAUCGGUUUUUUUGGAGGUUUUUGGAAAGUAUUAUGUUACGCCGUUCGGAUCUGCACUUCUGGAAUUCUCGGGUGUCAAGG | -0.502 |
| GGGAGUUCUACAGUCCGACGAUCUGGGAGGUGGAUUUUGUUUAUUUUUUUAGCUCAUUUCCAGGGGUGGGAAUUUUUUUUUAAUAUGUGUCAUGAAGAAAGUUGUUUUUGAAAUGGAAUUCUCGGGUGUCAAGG | -0.29 |
| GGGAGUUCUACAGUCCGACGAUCCACAGACAACACGCACCCACACAAACACAGAGGGAAGGGGUUGGGAUGGGGACAGGGUGCACAGCAGGGCGGGGUAGGACCCCAGCCCCUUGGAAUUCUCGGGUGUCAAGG | -0.331 |
| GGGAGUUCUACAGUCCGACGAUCCUCAAGUCCUGUGCUACACAUCGUAUGUACCGAAUCGGUGGUGGAAAAAAAGGAAAGUAUUAUGUUACGCCGUUCGGAUCUGCACUUCCAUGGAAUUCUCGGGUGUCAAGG | 0.139 |
| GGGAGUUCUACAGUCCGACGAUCAGUCCUGUGCUACACAUCGUAUGUACCGAAUCAAACCCCCCCAAACCCAAACCCAAAAAAGUAUUAUGUUACGCCGUUCGGAUCUGCACUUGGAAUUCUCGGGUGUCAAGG | 0.29 |
| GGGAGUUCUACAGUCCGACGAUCACCAUGCAGGUGGGCAUCUUUGGGAAGUGGGGCAAGGGGUGGAUAGGGAGGGGGGUAACACUUUGGGAACAGGUGGUCCCAGGUCGUUUCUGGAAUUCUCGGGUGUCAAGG | 0.347 |
| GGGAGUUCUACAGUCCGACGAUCUGGCCCUGGUGGCAUGCGGGGAGGAAGAGGUCGCCUCAUGGAUCGUGGUGGUCCCGGUGGAAUGUUCAGAGGUGGCCGUGGUGGAGACAGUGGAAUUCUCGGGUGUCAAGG | 0.741 |
| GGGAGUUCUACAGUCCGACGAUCUGGCUUCCUUCUUUCUAUUCCCCGCCUGCCUUCCAUGGUAGAGGCCAGUGACUUUGAGAUUAAUGGACUGGACUUCAUGGUAAGACCCUCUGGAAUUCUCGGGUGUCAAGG | 0.493 |
| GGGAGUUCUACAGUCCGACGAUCUGUCCUGUGCUUUCACAUUCUUUCUGCAUGGAGAAAGUAAUGUAUGCACAAGUGUGGAGAUUGCCCAGCACCAGCCAAUUUAUUUGAUCAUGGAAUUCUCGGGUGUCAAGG | -2.8 |

Study 5
Target: RNA binding protein fox-1 homolog 2, RRM domain, GST-SBP tag (RBFOX2, Homo sapiens, UniProt O43251-10, residues 100-194)
Method: RNA Bind-n-Seq
Molecule type: RNA
Matrix: in vitro
Tested at: 365 nM
Notes: natural RNA segment, single round, ends assumed
Relative to: no-protein control
Direction: higher = stronger binding
Residues (chain): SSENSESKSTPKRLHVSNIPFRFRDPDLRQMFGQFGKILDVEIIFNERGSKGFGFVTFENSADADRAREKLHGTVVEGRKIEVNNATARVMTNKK
| Strand | RBNS enrichment (R) |
| --- | --- |
| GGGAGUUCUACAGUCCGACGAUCAUCAGACUUCACACUGCAAGAGCCUUGGUGUCCACCUGGCCCCAUGUCUCUCAGAAUUCUUCAGGUGGAAAAACAUCUGAAAGCCACGUUCCUUACUGCAGAAUAGCAUAUGGAAUUCUCGGGUGCCAA | 0.249 |
| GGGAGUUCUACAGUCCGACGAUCGCUGACUGUGUGACUGCCCUGCUCCCUCUGUUCAUCUUAGCCCCAGCCCUCGUCCUCUUUCUGUGAUCCGAUUGAGGAUUUUUUCCUCCUUCAAGUUAAUUUAAACAACUUGGAAUUCUCGGGUGCCAA | 0.435 |
| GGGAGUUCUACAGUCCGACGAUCGGCAGGGAGCAGAGGGCUUCUCGUUCAUGCACCCUUUGCCUGAACACCCAUGUAGCUGCUGUGUUGUGUAUAUAUUACUCUUAAGAGGAGUGUGUGUGUCUGUGUUUGUUUGGAAUUCUCGGGUGCCAA | 1.01 |
| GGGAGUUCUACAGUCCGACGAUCGUAGCUCCCAUAAUUGUGGGAGGGACCUGGUGGGAGAUAAUUGAAUCAUAGGGGCAGUUUCUCCCAUACUGUUCUGGUGGUAGUGAAUAAGUCUCACGAGAUCUGAUGGUUGGAAUUCUCGGGUGCCAA | 0.71 |
| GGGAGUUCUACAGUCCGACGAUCUAAUAACCUGUUUUGUGUGCAGUUAAUCCAUUCUGAAGCAGGUGAAAGGUCAGUAUUUUAGCAUUUUAAAAGAUGAGUUAUAUAAUGUCUGCUUCCAGCCAGUCUGCAACUGGAAUUCUCGGGUGCCAA | 0.616 |
| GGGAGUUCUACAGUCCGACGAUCAGUCUUAAAGGCUGACUGGGAGGCCAUGAACUGUUCACAAGGAGCACGGCUCUGCAGGCGUUGAAUAUUUAAAAGCAUCUAUCUAAGAAAGGCUGUGUAGUAGAACCAGAUGGAAUUCUCGGGUGCCAA | 0.532 |
| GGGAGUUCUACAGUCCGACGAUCCGGCAUGGACGACGAGGAGGACUUCAACAAUUCACCCGCGCUGGGGAACAACAGCCCGUGGAACAGUAAACCUCCCGCCACUCAAGAGACCAAAUCAGAAAACCCCCCACUGGAAUUCUCGGGUGCCAA | 0.966 |
| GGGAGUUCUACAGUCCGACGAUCCUGUUUGUAUCAUGGACUGUCAUGCUCUAUGCCUGGUCCUGGGGUCUCUAGAGGAUACUCAUCUGGAGUCUCUGAAGACUUGACCCAUAUUUCCAAGACCCUACAACUCCUGGAAUUCUCGGGUGCCAA | 0.248 |
| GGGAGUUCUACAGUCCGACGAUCUUACCUGAGAGUUGUCUUGUUUUCUGGGCUGUUUUUAACUGAGGAAAAAAAAAAUGCUUUCCUGCCGGGGGGCAGGGGAGACGGAGAAACCCAUGUGCGUUUCCCAUGUGUGGAAUUCUCGGGUGCCAA | 1.75 |
| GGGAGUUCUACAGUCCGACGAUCUGCACUUAUGAACAAGGAACCUUAUUUUCAAUUUCUGUGUAAUUUUGCAAGGCUGUACAAUGUGCUGAUGCAAGCCUUUUUCAGUUCAAGAGAAUAAAUGUUUACAAAUGUGGAAUUCUCGGGUGCCAA | 0.704 |
| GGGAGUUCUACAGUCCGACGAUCAAUUGUGUUUUGUGUUCACCAUAUACAGAUCAUUUCUCAUCUGUAGUGUGCCCCAAAUGCAGCUUCACUUUCCAGGUACCCUGAUGCAGAAUAAAGUUUUCAUCAUAAACUGGAAUUCUCGGGUGCCAA | 0.423 |
| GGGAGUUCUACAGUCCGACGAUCUCCUGGAACCAAGCAUCCACGGAUACUGAGGGGUGACAUUUCAUGAAGUGUAGAUCAUUGUAUUCAGAGAUUGUAAAUGAAAAAAAUAUAGAAACUAUUUAGUUUUGGUAUGGAAUUCUCGGGUGCCAA | 0.429 |

A few entries again (study 1):
| Variant | normalised enrichment score |
| --- | --- |
| VKTAKRLNFDDKV [K4A] | 4.15 |
| VKTKKRLNADDKV [F9A] | 1.47 |
| VKTKKALNFDDKV [R6A] | 2.83 |
| VKTKKRLNFDDKA [V13A] | 5.73 |
| VKTKKRLNFADKV [D10A] | 2.84 |
| VKTKRRLNFDDKV [K5R] | 6.84 |
